Measured values of several laboratories.
Each line is one published result; not all experiments were run side by side.
Target: Serine/threonine-protein kinase Nek10 (NEK10, Homo sapiens, UniProt Q6ZWH5)

Cc1cnc2nc1Nc1cccc(c1)COC/C=C/COCc1cc(ccc1OCCN1CCOCC1)N2 — remaining binding (binding; 0.1 µM): 80%
CNC(=O)C1CCN(c2cc(C)c(F)cc2NC(=O)c2ccc(-c3cc(O)ccc3C)c(C)c2)CC1 — remaining binding (binding, competition with immobilised ligand; 1 µM): 66%
C=CC(=O)N1CCc2ccc(-n3c(=O)ccc4cnc5ccc(-c6cnn(C)c6)cc5c43)cc21 — remaining binding (KINOMEscan; 1 µM; relative to: DMSO control): 84%
CCn1cc(C(=O)O)c(=O)c2c(N)c(F)c(NC3CCCCC3)cc21 — inhibition (kinase activity; 0.1 µM, with: ATP at Km): 4.8%
COc1cc(Nc2nc(C)cc(-c3cnn4nc(OC)ccc34)n2)cc(C(F)(F)F)c1 — remaining activity (inhibitor; 1 µM; relative to: control): 100%
COc1c(Cl)cccc1Nc1c(-c2ccncc2C#C[C@@]2(C)CCCN2C(=O)/C=C/CN(C)C)[nH]c2c1C(=O)NCC2 — remaining binding (binding, competition with immobilised ligand; 3 µM): 82%
Nc1ncc2c(n1)-c1c([nH]c3ccc(C4=CCOCC4)cc13)CCC2 — remaining binding (binding, competition with immobilised ligand; 1 µM): 100%
COc1cc(Nc2nccc(-c3cnn4nc(OC)ccc34)n2)cc(C(F)(F)F)c1 — remaining binding (binding, competition with immobilised ligand; 1 µM): 100%
C=CC(=O)N1CCCC(n2c(=O)c3ncccc3n(Cc3ccc(Oc4ccccc4)cc3)c2=O)C1 (centres unmarked) — remaining binding (cell-free assay, competition with immobilised ligand; 1 µM): 76%
CC(C)=CC1OC(C)(C)C2C=C3C(=O)C(Cl)=CC(O)C3C3C(O)C4OC4C(=O)C132 (centres unmarked) — remaining binding (cell-free assay, competition with immobilised ligand; 10 µM): 79%
CNC1C[S+]2CC[S+]3CC[S+](C1)[Ru-4]321([N]=C=S)[n]2c3ccc(OC)cc3c3c4c(c5cc(F)c[n+]1c5c32)C(=O)NC4=O (centres unmarked) — remaining binding (KinomeScan; 0.1 µM; relative to: untreated): 100%

Some of these lines once more:
Nc1ncc2c(n1)-c1c([nH]c3ccc(C4=CCOCC4)cc13)CCC2 — remaining binding (binding, competition with immobilised ligand; 1 µM): 100%
COc1cc(Nc2nccc(-c3cnn4nc(OC)ccc34)n2)cc(C(F)(F)F)c1 — remaining binding (binding, competition with immobilised ligand; 1 µM): 100%
